Published values gathered from unrelated publications.
Compare with care: the assays were run in different laboratories. ± gives the spread as reported.
Organism: Influenza A virus

OC[C@H]1O[C@@H](OCCc2ccccc2)[C@H](O)[C@@H](O)[C@@H]1O
IC50 (viral replication, inhibitor; H1N1 WSN; 24 h): 12.5 µM

C[n+]1ccc(C(=O)NCc2ccccc2)cc1
IC50 (viral replication, inhibitor; HEK-293T; 24 h): 354 µM

CC(C)C1=CC2=C(C=O)C[C@@H]3[C@](C)(CCC[C@@]3(C)C(=O)OCC#CCN3CCCC3)[C@H]2CC1
IC50 (viral replication; MDCK, A/Puerto Rico/8/34 (H1N1)): 5 µM

CCN(CC)CCC(=O)O[C@@H]1C[C@@H]2CC[C@@]1(C)C2(C)C
IC50 (viral replication, inhibitor; MDCK, H1N1 PR8): 36 µM

COC(=O)[C@]1(C)CCC[C@]2(C)[C@H]3C[C@H]4C(C(C)C)=C[C@]3(CC[C@H]21)[C@H]1[C@@H]4[C@@H](OCC#CCN2CCCC2)CC[C@@H]1O
IC50 (viral replication; MDCK, A/Puerto Rico/8/34 (H1N1)): 0.26 µM

C=CCCCCOP(=O)(O)Oc1c2c(c(OP(=O)(O)OCCCCC=C)c3c1C1CC3c3cc4c(cc31)C1CC4c3ccccc31)C1CC2c2cc3c(cc21)C1CC3c2ccccc21
IC50 (viral replication; Caco-2): 16.7 µM

CC1=CCC2C(C)(CCC3(O)C24CCC(O)(OC4)C3(C)C)C12Oc1cc(-c3cccnc3)oc(=O)c1C2O (stereo not drawn)
IC50 (viral replication; H1N1): 7.43 µM

COC(=O)c1c(C)[nH]c2c3c(c(O)c(CN4CCOCC4)c12)[C@H]1C[C@@H]2[C@@]4(C)CCC[C@@](C)(C(=O)OC)[C@@H]4CC[C@@]32C=C1C(C)C
IC50 (viral replication; MDCK, A/Puerto Rico/8/34 (H1N1)): 3.5 µM

C[C@H](O)CC(=O)OCCc1ccc(O)cc1
IC50 (viral replication, inhibitor; H1N1 WSN; 24 h): 6.4 µM

CCN(CC)CC#CCOC(=O)[C@]1(C)CCC[C@@]2(C)[C@H]1CC(C=O)=C1C=C(C(C)C)CC[C@@H]12
IC50 (viral replication; MDCK, A/Puerto Rico/8/34 (H1N1)): 72.6 µM

O=P(O)(OCCc1ccccc1)Oc1c2c(c(OP(=O)(O)OCCc3ccccc3)c3c1C1CC3c3cc4c(cc31)C1CC4c3ccccc31)C1CC2c2cc3c(cc21)C1CC3c2ccccc21
IC50 (viral replication; Caco-2): 11.6 µM

C=CC1=C(C)c2cc3nc(cc4[nH]c(cc5[nH]c(cc1n2)c(C)c5C=C)c(C)c4CCC(=O)OCc1ccccc1)C(CCC(=O)O)=C3C
IC50 (viral replication; MDCK, A/Puerto Rico/8/34 H1N1): > 29.8 µM

CC(C)C1=C[C@@]23CC[C@@H]4[C@](C)(CCC[C@@]4(C)C(=O)OCC#CCN4CCOCC4)[C@H]2C[C@@H]1[C@H]1C(=O)CCC(=O)[C@H]13
IC50 (viral replication; MDCK, A/Puerto Rico/8/34 (H1N1)): 12.6 µM

CC(C)=CCC[C@H](C)c1ccc(C)cc1
IC50 (cytopathic effect; MDCK, H3N2; 72 h): 22.1 µg/mL

CC(C)C1=C[C@@]23CC[C@@H]4[C@](C)(CCC[C@@]4(C)C(=O)OCC#CCN4CCCC4)[C@H]2C[C@@H]1[C@H]1C(=O)CCC(=O)[C@H]13
IC50 (viral replication; MDCK, A/Puerto Rico/8/34 (H1N1)): 0.47 µM

CC1=CCC2C(C)(CCC3(O)C24CCC(O)(OC4)C3(C)C)C12Cc1c(cc(-c3cccnc3)oc1=O)O2 (stereo not drawn)
IC50 (viral replication; H1N1): 4.56 µM

C=CC1=C(C)c2cc3nc(cc4[nH]c(cc5[nH]c(cc1n2)c(C)c5C=C)c(C)c4CCC(=O)OCCCCCCCCCCCCCC)C(CCC(=O)O)=C3C
IC50 (viral replication; MDCK, A/Puerto Rico/8/34 H1N1): 21.3 ± 3.5 µM

CC1=CC[C@@H]2[C@]34CC[C@](O)(OC3=O)C(C)(C)[C@@H]4CC[C@@]2(C)[C@]12Cc1c(cc(-c3cccnc3)oc1=O)O2
IC50 (viral replication; H1N1): 7.48 µM

CCCCCCCOP(=O)(O)Oc1c2c(c(OP(=O)(O)OCCCCCCC)c3c1C1CC3c3cc4c(cc31)C1CC4c3ccccc31)C1CC2c2cc3c(cc21)C1CC3c2ccccc21
IC50 (viral replication; Caco-2): 24.5 µM

C=CC1=C(C)c2cc3nc(cc4[nH]c(cc5[nH]c(cc1n2)c(C)c5C=C)c(C)c4CCC(=O)OCc1ccc(-c2ccccc2)cc1)C(CCC(=O)O)=C3C
IC50 (viral replication; MDCK, H3N2): > 26.8 µM

CC=CCCCCOP(=O)(O)Oc1c2c(c(OP(=O)(O)OCCCCC=CC)c3c1C1CC3c3cc4c(cc31)C1CC4c3ccccc31)C1CC2c2cc3c(cc21)C1CC3c2ccccc21
IC50 (viral replication; Caco-2): 6.7 µM

C=C(C)[C@]1(O)CC[C@]2(C)[C@H](CC=C(C)[C@@]23Cc2c(cc(-c4cccnc4)oc2=O)O3)[C@@]12CCC(=O)OC2
IC50 (viral replication; H1N1): 4.03 µM

CCN(CC)CC#CCO[C@H]1CC[C@H](O)[C@@H]2[C@H]1[C@H]1C[C@@H]3[C@@]4(C)CCC[C@@](C)(C(=O)OC)[C@@H]4CC[C@@]23C=C1C(C)C
IC50 (viral replication; MDCK, A/Puerto Rico/8/34 (H1N1)): 21.3 µM

C#CCCCCOP(=O)(O)Oc1c2c(c(OP(=O)(O)OCCCCC#C)c3c1C1CC3c3cc4c(cc31)C1CC4c3ccccc31)C1CC2c2cc3c(cc21)C1CC3c2ccccc21
IC50 (viral replication; Caco-2): 46.5 µM

CC12CCC(CC1=NCCO)C2(C)C (stereo not drawn)
IC50 (viral replication, inhibitor; MDCK, H1N1): 5.1 µM

C=CC1=C(C)c2cc3nc(cc4[nH]c(cc5[nH]c(cc1n2)c(C)c5C=C)c(C)c4CCC(=O)OCCCCCCCCCCCCCCCCCC)C(CCC(=O)O)=C3C
IC50 (viral replication; MDCK, A/Puerto Rico/8/34 H1N1): > 21.9 µM

O=P(O)(OCCCc1ccccc1)Oc1c2c(c(OP(=O)(O)OCCCc3ccccc3)c3c1C1CC3c3cc4c(cc31)C1CC4c3ccccc31)C1CC2c2cc3c(cc21)C1CC3c2ccccc21
IC50 (viral replication; Caco-2): 3.8 µM

CC(C)c1ccc2c(c1)CC[C@H]1[C@](C)(C(=O)OCC#CCN3CCOCC3)CCC[C@]21C
IC50 (viral replication; MDCK, A/Puerto Rico/8/34 (H1N1)): > 89 µM

C#CCCCOP(=O)(O)Oc1c2c(c(OP(=O)(O)OCCCC#C)c3c1C1CC3c3cc4c(cc31)C1CC4c3ccccc31)C1CC2c2cc3c(cc21)C1CC3c2ccccc21
IC50 (viral replication; Caco-2): 193 µM

C=CC1=C(C)c2cc3nc(cc4[nH]c(cc5[nH]c(cc1n2)c(C)c5C=C)c(C)c4CCC(=O)OCCCCCCCCCC)C(CCC(=O)O)=C3C
IC50 (viral replication; MDCK, A/Puerto Rico/8/34 H1N1): 7.2 ± 3.23 µM

CN(C)CC(=O)O[C@@H]1C[C@@H]2CC[C@@]1(C)C2(C)C
IC50 (viral replication, inhibitor; MDCK, H1N1 PR8): 163 µM

C#CCC(C)OP(=O)(O)Oc1c2c(c(OP(=O)(O)OC(C)CC#C)c3c1C1CC3c3cc4c(cc31)C1CC4c3ccccc31)C1CC2c2cc3c(cc21)C1CC3c2ccccc21 (stereo not drawn)
IC50 (viral replication; Caco-2): 38.4 µM

CC1=CCC[C@H](C)[C@@]12CC[C@@H](C(C)(C)O)C2
IC50 (cytopathic effect; MDCK, H1N1 PR/8; 72 h): 54.2 µg/mL
